Assay results gathered from unrelated publications.
Parts stem from different laboratories: compare values within a part only.
Chain of UniProt O60674 (whole entry, looked up): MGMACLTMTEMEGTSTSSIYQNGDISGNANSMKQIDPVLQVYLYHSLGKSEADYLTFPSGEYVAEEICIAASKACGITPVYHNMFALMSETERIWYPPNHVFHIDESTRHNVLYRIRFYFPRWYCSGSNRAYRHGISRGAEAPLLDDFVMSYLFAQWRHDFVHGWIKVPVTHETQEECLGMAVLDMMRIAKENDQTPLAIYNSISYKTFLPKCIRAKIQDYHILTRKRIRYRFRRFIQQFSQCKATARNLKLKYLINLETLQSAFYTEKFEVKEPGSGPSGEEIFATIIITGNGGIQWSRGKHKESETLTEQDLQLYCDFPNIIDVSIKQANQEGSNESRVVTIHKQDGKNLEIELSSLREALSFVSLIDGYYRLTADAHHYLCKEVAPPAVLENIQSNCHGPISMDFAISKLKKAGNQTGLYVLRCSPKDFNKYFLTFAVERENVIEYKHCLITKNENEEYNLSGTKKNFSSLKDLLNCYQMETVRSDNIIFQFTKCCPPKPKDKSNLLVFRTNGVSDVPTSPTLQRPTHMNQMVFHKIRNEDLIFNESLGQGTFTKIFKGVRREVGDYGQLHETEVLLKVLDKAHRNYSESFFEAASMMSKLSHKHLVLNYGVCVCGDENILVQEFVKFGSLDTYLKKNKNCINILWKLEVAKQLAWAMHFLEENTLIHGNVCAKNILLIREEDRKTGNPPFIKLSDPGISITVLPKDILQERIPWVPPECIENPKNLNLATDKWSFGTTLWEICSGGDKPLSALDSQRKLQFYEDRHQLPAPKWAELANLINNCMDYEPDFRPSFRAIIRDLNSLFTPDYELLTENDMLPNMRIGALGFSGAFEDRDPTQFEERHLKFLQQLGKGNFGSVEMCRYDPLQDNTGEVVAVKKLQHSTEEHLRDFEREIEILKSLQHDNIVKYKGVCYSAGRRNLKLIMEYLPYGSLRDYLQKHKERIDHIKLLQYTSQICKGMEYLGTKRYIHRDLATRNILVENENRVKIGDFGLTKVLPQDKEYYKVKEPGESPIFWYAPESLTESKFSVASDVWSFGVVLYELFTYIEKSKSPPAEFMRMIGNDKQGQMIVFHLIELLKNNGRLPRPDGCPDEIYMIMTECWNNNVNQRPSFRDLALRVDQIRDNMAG
Chain of UniProt Q9NQU5 (whole entry, looked up): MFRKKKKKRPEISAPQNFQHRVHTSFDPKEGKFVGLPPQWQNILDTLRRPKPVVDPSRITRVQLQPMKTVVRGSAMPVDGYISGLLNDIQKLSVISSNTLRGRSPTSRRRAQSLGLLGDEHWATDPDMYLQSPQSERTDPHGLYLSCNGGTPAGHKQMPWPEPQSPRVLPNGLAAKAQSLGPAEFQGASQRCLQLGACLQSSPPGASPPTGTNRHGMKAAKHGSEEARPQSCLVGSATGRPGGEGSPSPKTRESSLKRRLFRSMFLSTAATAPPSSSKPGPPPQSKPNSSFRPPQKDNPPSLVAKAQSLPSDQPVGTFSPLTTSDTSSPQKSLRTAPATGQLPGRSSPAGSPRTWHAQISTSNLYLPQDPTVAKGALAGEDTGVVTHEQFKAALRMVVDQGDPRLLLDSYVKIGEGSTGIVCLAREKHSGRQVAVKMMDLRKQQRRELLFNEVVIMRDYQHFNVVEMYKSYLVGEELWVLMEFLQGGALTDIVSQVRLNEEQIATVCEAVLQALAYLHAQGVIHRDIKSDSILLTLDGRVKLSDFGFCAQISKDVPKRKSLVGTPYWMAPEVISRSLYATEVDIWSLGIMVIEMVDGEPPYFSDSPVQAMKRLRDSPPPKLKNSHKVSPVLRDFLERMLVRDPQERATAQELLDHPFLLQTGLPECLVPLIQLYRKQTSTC
Chain of UniProt P23458 (whole entry, looked up): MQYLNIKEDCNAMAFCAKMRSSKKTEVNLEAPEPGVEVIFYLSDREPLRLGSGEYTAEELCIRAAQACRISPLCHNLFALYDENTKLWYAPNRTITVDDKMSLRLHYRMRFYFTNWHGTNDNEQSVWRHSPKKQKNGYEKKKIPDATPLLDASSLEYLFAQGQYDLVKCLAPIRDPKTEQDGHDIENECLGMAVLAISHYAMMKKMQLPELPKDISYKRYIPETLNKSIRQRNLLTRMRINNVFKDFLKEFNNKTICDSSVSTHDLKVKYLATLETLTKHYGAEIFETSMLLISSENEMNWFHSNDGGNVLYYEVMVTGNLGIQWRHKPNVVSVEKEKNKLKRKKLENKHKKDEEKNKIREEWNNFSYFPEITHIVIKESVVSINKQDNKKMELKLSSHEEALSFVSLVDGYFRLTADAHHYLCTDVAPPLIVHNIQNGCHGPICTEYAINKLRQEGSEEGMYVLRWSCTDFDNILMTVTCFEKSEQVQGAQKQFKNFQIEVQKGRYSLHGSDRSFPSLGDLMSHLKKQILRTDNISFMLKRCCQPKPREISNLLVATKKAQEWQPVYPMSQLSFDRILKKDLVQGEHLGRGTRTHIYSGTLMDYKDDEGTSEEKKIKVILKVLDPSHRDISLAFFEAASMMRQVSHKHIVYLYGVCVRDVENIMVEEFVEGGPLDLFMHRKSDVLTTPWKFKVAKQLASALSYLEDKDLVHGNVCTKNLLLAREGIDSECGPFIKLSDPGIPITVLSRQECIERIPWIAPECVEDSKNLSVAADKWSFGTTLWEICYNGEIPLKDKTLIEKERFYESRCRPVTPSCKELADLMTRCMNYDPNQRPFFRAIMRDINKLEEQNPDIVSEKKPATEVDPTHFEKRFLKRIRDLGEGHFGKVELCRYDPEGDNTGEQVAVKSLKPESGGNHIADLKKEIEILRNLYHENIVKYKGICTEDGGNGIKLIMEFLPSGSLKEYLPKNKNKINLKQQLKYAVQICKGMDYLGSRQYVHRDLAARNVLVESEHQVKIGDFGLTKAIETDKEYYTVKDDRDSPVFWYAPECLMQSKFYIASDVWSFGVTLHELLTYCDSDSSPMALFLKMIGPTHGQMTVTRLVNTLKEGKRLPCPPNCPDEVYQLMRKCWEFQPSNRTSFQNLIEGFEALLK
Chain of UniProt Q8TD08 (whole entry, looked up): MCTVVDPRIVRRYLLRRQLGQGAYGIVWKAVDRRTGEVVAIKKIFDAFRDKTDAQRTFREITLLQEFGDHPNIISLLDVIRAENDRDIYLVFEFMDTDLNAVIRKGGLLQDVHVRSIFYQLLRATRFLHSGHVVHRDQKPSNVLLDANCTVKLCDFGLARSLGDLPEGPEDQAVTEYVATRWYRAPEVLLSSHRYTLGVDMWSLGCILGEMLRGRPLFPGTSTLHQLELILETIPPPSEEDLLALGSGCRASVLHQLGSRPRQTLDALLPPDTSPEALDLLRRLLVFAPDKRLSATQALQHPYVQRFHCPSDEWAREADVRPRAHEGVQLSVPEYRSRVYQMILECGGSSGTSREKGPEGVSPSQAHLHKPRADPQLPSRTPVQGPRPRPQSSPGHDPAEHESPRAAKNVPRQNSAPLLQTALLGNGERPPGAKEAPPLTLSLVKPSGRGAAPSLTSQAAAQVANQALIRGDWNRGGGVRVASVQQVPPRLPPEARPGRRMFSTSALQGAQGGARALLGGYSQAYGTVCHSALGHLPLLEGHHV
Chain of UniProt P29317 (whole entry, looked up): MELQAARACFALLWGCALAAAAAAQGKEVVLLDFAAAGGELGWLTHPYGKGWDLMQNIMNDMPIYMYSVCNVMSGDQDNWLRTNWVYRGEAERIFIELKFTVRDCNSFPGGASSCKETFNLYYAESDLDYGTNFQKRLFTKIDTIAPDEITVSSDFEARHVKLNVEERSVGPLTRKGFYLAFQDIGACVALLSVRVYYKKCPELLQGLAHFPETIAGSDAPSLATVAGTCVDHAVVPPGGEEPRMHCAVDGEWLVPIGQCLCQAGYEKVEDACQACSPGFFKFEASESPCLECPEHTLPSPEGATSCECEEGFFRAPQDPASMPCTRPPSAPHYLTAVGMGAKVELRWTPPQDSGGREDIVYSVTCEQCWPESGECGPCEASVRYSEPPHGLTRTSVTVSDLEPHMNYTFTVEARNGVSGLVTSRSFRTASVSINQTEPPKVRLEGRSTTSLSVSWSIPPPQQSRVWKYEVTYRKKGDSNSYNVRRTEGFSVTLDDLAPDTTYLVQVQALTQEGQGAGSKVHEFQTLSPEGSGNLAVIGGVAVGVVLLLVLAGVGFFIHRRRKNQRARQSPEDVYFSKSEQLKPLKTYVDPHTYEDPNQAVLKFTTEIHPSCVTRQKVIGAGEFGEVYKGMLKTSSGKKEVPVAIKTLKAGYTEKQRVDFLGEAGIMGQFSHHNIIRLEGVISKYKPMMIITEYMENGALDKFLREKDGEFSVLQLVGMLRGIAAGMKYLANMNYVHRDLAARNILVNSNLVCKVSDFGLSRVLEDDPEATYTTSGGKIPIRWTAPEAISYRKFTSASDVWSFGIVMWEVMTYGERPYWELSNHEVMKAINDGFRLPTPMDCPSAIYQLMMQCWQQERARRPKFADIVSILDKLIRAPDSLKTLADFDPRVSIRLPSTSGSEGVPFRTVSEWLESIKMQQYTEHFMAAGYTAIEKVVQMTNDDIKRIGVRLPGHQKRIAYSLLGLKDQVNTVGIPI
Chain of UniProt Q8IVW4 (whole entry, looked up): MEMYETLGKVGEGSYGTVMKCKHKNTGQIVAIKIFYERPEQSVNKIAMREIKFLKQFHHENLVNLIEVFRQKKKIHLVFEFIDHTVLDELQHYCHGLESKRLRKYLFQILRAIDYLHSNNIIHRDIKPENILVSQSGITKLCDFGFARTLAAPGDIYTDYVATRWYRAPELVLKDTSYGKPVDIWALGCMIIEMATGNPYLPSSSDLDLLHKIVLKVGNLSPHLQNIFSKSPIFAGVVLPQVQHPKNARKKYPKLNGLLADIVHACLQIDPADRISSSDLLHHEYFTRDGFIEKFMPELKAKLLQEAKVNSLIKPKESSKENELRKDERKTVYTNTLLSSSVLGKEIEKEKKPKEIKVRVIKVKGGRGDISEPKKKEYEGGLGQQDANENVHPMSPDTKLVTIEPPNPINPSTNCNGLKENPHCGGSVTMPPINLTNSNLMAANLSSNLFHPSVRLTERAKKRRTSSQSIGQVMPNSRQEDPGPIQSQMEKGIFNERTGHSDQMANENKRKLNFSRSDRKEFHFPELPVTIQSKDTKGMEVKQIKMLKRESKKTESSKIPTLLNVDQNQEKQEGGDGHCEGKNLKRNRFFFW

Series 1 — tested at: 1 µM
SMILES: CCC(=O)N[C@@H]1CC[C@H](C(=O)N(C)c2ccc(-c3nc4ccccc4o3)cc2)C1
target	read-out	technique	remaining binding [%]
Serine/threonine-protein kinase PRP4 homolog (PRPF4B, Homo sapiens, UniProt Q13523)	cell-free assay	competition with immobilised ligand	77
Serine/threonine-protein kinase SIK1 (SIK1, Homo sapiens, UniProt P57059)		competition binding	95
Serine/threonine-protein kinase 35 (STK35, Homo sapiens, UniProt Q8TDR2)	cell-free assay	competition with immobilised ligand	100
Tyrosine-protein kinase SYK (SYK, Homo sapiens, UniProt P43405)	cell-free assay	competition with immobilised ligand	100
Receptor-type tyrosine-protein kinase FLT3 (FLT3, Homo sapiens, UniProt P36888, D835Y)	cell-free assay	competition with immobilised ligand	100
Ephrin type-A receptor 6 (EPHA6, Homo sapiens, UniProt Q9UF33)	cell-free assay	competition with immobilised ligand	100
Serine/threonine-protein kinase PAK 2 (PAK2, Homo sapiens, UniProt Q13177)	cell-free assay	competition with immobilised ligand	86
Mitogen-activated protein kinase 15 (MAPK15, Homo sapiens, UniProt Q8TD08)	cell-free assay	competition with immobilised ligand	100
Cyclin-dependent kinase-like 3 (CDKL3, Homo sapiens, UniProt Q8IVW4)	cell-free assay	competition with immobilised ligand	79

Series 2 — SMILES: O=C1NC(=O)/C(=C/c2ccc3nccnc3c2)S1; read-out: enzyme activity; mode: inhibitor; tested at: 0.5 µM; baseline: control
target	remaining activity
Tyrosine-protein kinase JAK1 (JAK1, Homo sapiens, UniProt P23458)	103%
Maternal embryonic leucine zipper kinase (MELK, Homo sapiens, UniProt Q14680)	90.7%
Serine/threonine-protein kinase PAK 5 (PAK5, Homo sapiens, UniProt Q9P286)	97.4%
Vascular endothelial growth factor receptor 1 (FLT1, Homo sapiens, UniProt P17948)	87.5%
Mitogen-activated protein kinase kinase kinase 20 (MAP3K20, Homo sapiens, UniProt Q9NYL2)	93.6%
Muscle, skeletal receptor tyrosine-protein kinase (MUSK, Homo sapiens, UniProt O15146)	16.2%
Activin receptor type-1-like (ACVRL1, Homo sapiens, UniProt P37023)	107%
Tyrosine-protein kinase Fes/Fps (FES, Homo sapiens, UniProt P07332)	96.4%
Protein kinase C theta type (PRKCQ, Homo sapiens, UniProt Q04759)	92.8%
Serine/threonine-protein kinase PAK 6 (PAK6, Homo sapiens, UniProt Q9NQU5)	107%
Serine/threonine-protein kinase PAK 4 (PAK4, Homo sapiens, UniProt O96013)	88.5%
Ephrin type-A receptor 2 (EPHA2, Homo sapiens, UniProt P29317)	99.9%
Protein kinase C zeta type (PRKCZ, Homo sapiens, UniProt Q05513)	103%
Tyrosine-protein kinase JAK2 (JAK2, Homo sapiens, UniProt O60674)	97.4%

Series 3 — technique: RNAcompete; molecule type: RNA; matrix: in vitro; tested at: 20 nM; setting: 7-mer, probes averaged, single round; baseline: mean of 7-mers; direction: higher = stronger binding
Target: PABPC1L2, full length, GST fusion (mouse, UniProt A0ABA7IW68)
Construct (chain): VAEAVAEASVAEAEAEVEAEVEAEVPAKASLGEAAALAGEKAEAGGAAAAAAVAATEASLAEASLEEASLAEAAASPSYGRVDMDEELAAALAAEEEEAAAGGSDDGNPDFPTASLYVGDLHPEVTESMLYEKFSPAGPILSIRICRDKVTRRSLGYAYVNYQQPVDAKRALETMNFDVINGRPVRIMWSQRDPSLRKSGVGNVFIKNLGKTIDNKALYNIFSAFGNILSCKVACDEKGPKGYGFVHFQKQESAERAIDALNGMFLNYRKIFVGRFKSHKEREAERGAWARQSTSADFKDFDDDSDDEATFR
Sequence	7-mer Z-score
AUCACCG	-0.144
GUCGUCC	-0.425
CGGGCAA	0.349
CGCAUCU	-0.318
AGAUGGG	0.00436
CGAGAAC	-0.137
GAUGAUU	-0.284
CAGAUCU	-0.142

Mixed results
Structure (SMILES)	matrix	endpoint	result
CCOC(=O)[C@@H]1CSCC(=O)N[C@@H](CC)C(=O)N(C)[C@@H](C)C(=O)N[C@@H](CC(C)C)C(=O)N2CCC[C@@H]2C(=O)N(CC(C)C)CC(=O)N[C@@H](CC(C)C)C(=O)N(C)[C@H](C)C(=O)N[C@@H](CC(C)C)C(=O)N1C	hydrocarbon/water	logD	1.86

A few entries again (series 2):
target	remaining activity
Serine/threonine-protein kinase PAK 5 (PAK5, Homo sapiens, UniProt Q9P286)	97.4%
Vascular endothelial growth factor receptor 1 (FLT1, Homo sapiens, UniProt P17948)	87.5%
Mitogen-activated protein kinase kinase kinase 20 (MAP3K20, Homo sapiens, UniProt Q9NYL2)	93.6%
Muscle, skeletal receptor tyrosine-protein kinase (MUSK, Homo sapiens, UniProt O15146)	16.2%
